Experimental data of several laboratories.
Each line is one published result; not all experiments were run side by side. ± gives the spread as reported.

CC(NC(=O)c1cc2c(Cl)cc(Cl)cc2[nH]1)C12CC3CC(CC(C3)C1)C2 (centres unmarked)  IC50 (KNS-42; cell growth or viability, resazurin; 72 h): > 10 µM
N=C(N)NCCC[C@H](NC(=O)[C@H](Cc1c[nH]c2ccccc12)NC(=O)[C@H](CCC(N)=O)NC(=O)[C@H](Cc1c[nH]c2ccccc12)NC(=O)[C@@H](N)CCCNC(=N)N)C(=O)N[C@@H](Cc1c[nH]c2ccccc12)C(=O)N[C@@H](CCC(N)=O)C(=O)N[C@@H](Cc1c[nH]c2ccccc12)C(=O)N[C@@H](CCCN)C(N)=O  IC50 (Caco-2; cell growth or viability, MTT): 40 µM
CC[C@H](C)[C@@H]1NC(=O)[C@H](CCC(=O)O)NC(=O)[C@H](C)NC(=O)[C@H](CC(C)C)NC(=O)[C@H](CC(C)C)NC(=O)C2(CCCC=CCCCCCC[C@@](C)(C(=O)N[C@@H](CC(N)=O)C(=O)N[C@@H](CC(C)C)C(=O)N[C@@H](CO)C(N)=O)NC(=O)[C@H](CCCCN)NC1=O)CCCC=CCCC[C@](C)(NC(=O)[C@H](CCCNC(=N)N)NC(=O)[C@H](CC(N)=O)NC(=O)[C@H](CCC(=O)O)NC(=O)[C@@H]1CCCN1C(=O)[C@H](CC(=O)O)NC(=O)[C@H](CC(N)=O)NC(=O)[C@@H](N)CC(=O)O)C(=O)N[C@@H](C)C(=O)N[C@@H](CCCCN)C(=O)N[C@@H](CCCCN)C(=O)N2 (some centres unmarked)  IC50 (HCT-116 expressing NanoLuc-HaloTag; intracellular peptide delivery, NanoBRET; 24 h, 37 °C, 1% DMSO): 0.0071 µM
Cc1ccc(S(=O)(=O)N[C@@H](Cc2ccccc2)C(=O)CCl)cc1  IC50 (HEK293 expressing MOR; cAMP overshoot, inhibitor, HTRF cAMP; added: morphine then naloxone): 18.4 µM
O=C1C[C@@H](O)CO1  IC50 (RAW264.7; NO release, inhibitor; LPS-stimulated): 70.7 µM
CC(C)[C@H](CO)Nc1nc(Nc2cc(N)cc(Cl)c2)c2ncn(C(C)C)c2n1  IC50 (H3255 (EGFR L858R); cell viability, Alamar Blue; 120 h): > 10 µM
CCCCCCCCCC(=O)N[C@@H](Cc1ccccc1)C(=O)N[C@H](C(=O)NCC(=O)N[C@H](C(=O)N[C@@H](CC(C)C)C(=O)N[C@H](C(=O)N1CCC[C@H]1C(=O)N[C@@H](CC(C)C)C(=O)N[C@@H](C)C(=O)N[C@@H](CC(C)C)C(=O)NCC(=O)N[C@@H](C)C(=O)N[C@@H](CC(C)C)C(=O)N[C@H](C(=O)N[C@@H](CCCCN)C(=O)N[C@@H](CC(C)C)C(=O)N[C@@H](Cc1ccccc1)C(=O)N[C@@H](CCCCN)C(N)=O)[C@@H](C)O)[C@@H](C)CC)[C@@H](C)O)[C@@H](C)CC  IC50 (HCT-116; cell growth or viability, CCK-8; 24 h): 6.82 µM
COc1ccc(C[C@H]2NC(=O)/C=C/C[C@@H]([C@H](C)[C@@H](OC(=O)CN)[C@@H](Cl)c3ccccc3)OC(=O)[C@H](CC(C)C)OC(=O)C(C)(C)CNC2=O)cc1Cl  IC50 (M21 human melanoma (integrin αvβ3-positive); cell viability, MTT; 2 h treatment plus 70 h): 0.00075 ± 0.00011 µM
CNC(=O)c1cc(Oc2ccc(NC(=O)Nc3ccc(Cl)c(C(F)(F)F)c3)cc2)ccn1  IC50 (MHCC97H; cell growth or viability, MTT; 48 h): 1.1 µM
O=C(Cn1cnc2ccccc2c1=O)Nc1ccccc1O  IC50 (MDA-MB-231; cell growth or viability, crystal violet; 48 h): > 100 µM
C[C@@]12OC(=O)[C@]1([C@@H](O)[C@@H]1C=CCCC1)NC(=O)[C@@H]2CCCl  IC50 (human astrocytes; C3 secretion, ELISA; added: stimulated PBMC supernatant): < 0.025 µM
N.N.[Cl][Pt][Cl]  IC50 (HCT-116; cell viability, MTS; 72 h): 41 ± 2.7 µM
CC(C)c1ccc2c(c1)CC[C@H]1[C@](C)(CN)CCC[C@]21C  IC50 (HFK normal keratinocytes; cell viability, MTS; 24 h): 10 ± 0.36 µM
echistatin  IC50 (U-87 MG; cell adhesion to fibronectin; 2 h): 0.0092 ± 0.0015 µM
COc1cc2c(c(OC)c1OC)-c1ccc(N)c(=O)cc1[C@@H](NC(C)=O)CC2  IC50 (HT-1080 MT1-MMP positive; cell viability, MTT; 24 h exposure, read 96 h post treatment): 0.036 ± 0.005 µM
CN[C@@](C)(C[18F])C(=O)O  tracer uptake (MDA-MB-468 tumour model; host not given, blood; 15 min, tumour-bearing): 2.3 %ID/g
Nc1cccc2c(N)cccc12  IC50 (HepG2; mitochondrial membrane potential, fluorescence plate reader; 1 h): inactive
COC(=O)[C@H]1[C@@H](O)[C@@]2(O)c3c(OC)cc(O[C@@H]4O[C@@H]([C@H](O)CO)CO[C@H]4OC)cc3O[C@@]2(c2ccc(OC)cc2)[C@@H]1c1ccccc1  IC50 (NIH/3T3 eIF4A1 knockdown; cell viability; 5 days): 0.0038 µM
CC(=N)NCCCC[C@H](N)C(=O)O  IC50 (mouse peritoneal cells; nitric oxide production, Griess; 24 h, added: LPS plus IFN-gamma): 8.14 µM
O=C1C[C@@H](c2ccc(O)cc2)Oc2cc(O)ccc21  IC50 (MCF7 breast cancer; cell growth): > 250 µM
CCc1c2c(nc3ccc(OCc4ccc(NC(=O)[C@H](C)NC(=O)[C@@H](NC(=O)CCCCCNC(=O)COCCOCCOCCNC(=O)CCCCC(=O)N5Cc6ccccc6-c6c(nnn6CCOCCOCCOCCOCCC(=O)N[C@@H](Cc6c[nH]cn6)C(=O)N[C@@H](C)C(=O)N[C@H](C(=O)N[C@@H](Cc6ccc(O)cc6)C(=O)N6CCC[C@H]6C(=O)N[C@@H](CCCNC(=N)N)C(=O)N[C@@H](Cc6c[nH]cn6)C(=O)O)[C@@H](C)CC)-c6ccccc65)C(C)C)cc4)cc13)-c1cc3c(c(=O)n1C2)COC(=O)[C@]3(O)CC  IC50 (U-87 MG; cytotoxicity, XTT; 72 h): 0.0701 µM
C=C(C)[C@@H]1CCC(C)=C[C@H]1c1c(O)cc(CCCCC)cc1O  IC50 (SK-OV-3 (HER2-positive); cell viability, MTT; 72 h): 13.8 µM
COC(=O)[C@@]1(O)C[C@H]2O[C@]1(C)n1c3ccccc3c3c4c(c5c6ccccc6n2c5c31)C(=O)NC4  IC50 (HeLa expressing Ub(G76V)-GFP; Ub(G76V)-GFP degradation, inhibitor, cycloheximide chase): 10 ± 4 µM
CC(NC(=O)c1cc2ccccc2[nH]1)C12CC3CC(CC(C3)C1)C2 (centres unmarked)  IC50 (KNS-42; cell growth or viability, resazurin; 72 h): > 10 µM
CC1(C)Cc2c(-c3ccccc3)c(-c3ccc(Cl)cc3)c(CC(=O)O)n2C1  IC50 (AGS; IL-8 secretion; 24 h, added: IL-1β 1 ng/mL): 1.1 µM
C#CC[C@H](N)C(=O)N[C@@H](C)C(=O)N1CCC[C@H]1C(=O)N1CCC[C@H]1C(=O)NCC(=O)N[C@@H](CCCN)C(=O)N[C@@H](CCCNC(=N)N)C(=O)N[C@@H](CC(C)C)C(=O)N[C@@H](CCCNC(=N)N)C(=O)N[C@@H](CO)C(=O)NCC(=O)N[C@@H](CCCNC(=N)N)C(=O)N[C@@H](CO)C(=O)N[C@H](C(=O)NCC(=O)N[C@@H](C)C(=O)N1CCC[C@H]1C(=O)N[C@@H](CC(C)C)C(=O)N[C@H](C(=O)N[C@@H](CCCNC(=N)N)C(=O)NCC(=O)N[C@@H](CO)C(N)=O)[C@@H](C)O)[C@@H](C)O  IC50 (A2780cisR; cell growth or viability, MTT; 72 h, drug-resistant strain): > 200 µM
COc1cccc2c1C(=O)c1c(O)c3c(c(O)c1C2=O)C[C@@](O)(C(=O)CO)C[C@@H]3O[C@H]1C[C@H](N)[C@H](O)[C@H](C)O1  IC50 (U-251; cell growth or viability, SRB; 72 h): 3.3 µM
CCCCc1c(Cl)nc(N)nc1Cl  IC50 (mouse peritoneal cells; nitric oxide production, refers to: nitrite; 24 h, added: LPS plus IFN-gamma): 36 µM
C[C@H]1[C@H](OC(=O)CCC(=O)Oc2ccc(CCO)cc2)O[C@@H]2O[C@@]3(C)CC[C@H]4[C@H](C)CC[C@@H]1[C@@]24OO3  IC50 (SK-MEL-24; cell viability, MTT; 24 h, added: deferoxamine 20 µM, 1 h before): 2.5 ± 0.6 µM

A few entries again:
N.N.[Cl][Pt][Cl]  IC50 (HCT-116; cell viability, MTS; 72 h): 41 ± 2.7 µM
CC(C)c1ccc2c(c1)CC[C@H]1[C@](C)(CN)CCC[C@]21C  IC50 (HFK normal keratinocytes; cell viability, MTS; 24 h): 10 ± 0.36 µM
echistatin  IC50 (U-87 MG; cell adhesion to fibronectin; 2 h): 0.0092 ± 0.0015 µM
